Published values gathered from unrelated publications.
A part holds a random share of what one study measured. Changes are numbered by the printed parent chain.

Block 1
Target: RNA binding protein fox-1 homolog 2, RRM domain, GST-SBP tag (RBFOX2, Homo sapiens, UniProt O43251-10, residues 100-194)
Technique: RNA Bind-n-Seq
Molecule type: RNA
Matrix: in vitro
Concentration: 365 nM
Notes: natural RNA segment, single round, ends assumed
Relative to: no-protein control
Direction: higher = stronger binding
Construct (chain): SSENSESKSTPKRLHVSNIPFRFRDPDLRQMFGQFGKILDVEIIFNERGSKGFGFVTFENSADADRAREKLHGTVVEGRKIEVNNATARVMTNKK
Sequence	RBNS enrichment (R)
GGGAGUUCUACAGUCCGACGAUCAAGACCGGAGCCCCGCAGGAGUGGGGAGGAAUGGGAGGAGUGUGUACGCUUGGGGGCUGGGAUGCCGUGUACACACGCACAAGUACACAUCGCGCUCAGGACUUCACUGAUGGAAUUCUCGGGUGCCAA	0.952
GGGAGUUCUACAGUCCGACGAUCUGGCAGGAAAUAUCCCCUCAUGUCCCAGGGAAUUGCAGAUGGGUCUUCUAUACCCUUCUACCUGCCCUUAGAUCUCCAUUUUUAUCAAAUAGUACAUUGCAUUUUGAAGUUGGAAUUCUCGGGUGCCAA	0.732
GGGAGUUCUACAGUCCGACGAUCAUUGAGCCCCUGAGGACAGGGGCAUCUCUGGGCUGAGCCUACUGUCUCCUUCCCACUGUCCUUUCUCCAGGCCCUCAGAUGGCACAUUAGGGUGGGCGUGCUGCGGGUGGUGGAAUUCUCGGGUGCCAA	0.495
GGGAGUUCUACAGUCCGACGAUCGAGGAUGACUUACGUGCUCUGAUUUAUAUCAUAAAGCAAGAAGACUGAGCAUUCUUACACUUGAUGGAAAAAUUAAAGCCUAGAAGGACCAAAGAUGUCCUUAUUGACAAUGGAAUUCUCGGGUGCCAA	0.595
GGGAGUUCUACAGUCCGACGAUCAAUGUUGGAGGAGAGAUAAGUUAUAGGGAGCUGGAUUUCAAAACGUGGUCCAAGAUUCAAAAAUCCUAUUGAUAGUGGCCAUUUUAAUCAUUGCCAUCGUGUGCUUGUUUUGGAAUUCUCGGGUGCCAA	0.475
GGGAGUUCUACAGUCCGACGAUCUGUCCUCAAUUCGUGUGACCAUAAGAUACUGAUAGCAUUGAGUCUUGAAAUGAUUUAAUAAUAUGAGUGAGGAUUUGCUUUCUCCAUUAGAGCAUUAAGCUAAAACUAUCUGGAAUUCUCGGGUGCCAA	0.566
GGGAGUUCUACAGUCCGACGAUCGAGGUCCACUCGUGACCUAGGCCGCCCCACUCCCAUCCACCGAGAGUCAAGUGAUGACACGACACACUUGAAACCCUGGCAAGUGGCUGCAAGGUGAGGAUUGGACUCGUUGGAAUUCUCGGGUGCCAA	0.3
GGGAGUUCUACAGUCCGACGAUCGAUUGUGAGUGUGUGUGGGGUGCUCACACGCGUGCCAGUCUUUUUGUACUGUAACUACCUCAUGGUUUGAAUGAUGAUUGUACUGCUGGUUGUGUUAACAGAGCACAUUUUGGAAUUCUCGGGUGCCAA	1.17

Block 2
Target: Prothrombin, mature alpha-thrombin (F2, Homo sapiens, UniProt P00734)
Technique: aptamer microarray, sandwich
Molecule type: DNA with 2'F-ANA
Matrix: in vitro
Concentration: 200 nM
Notes: whole 15-mer aptamer, many near background
Together with: Cy3 exosite-II aptamer, 400 nM
Direction: higher = stronger binding
Sequence: GGTTGGTGTGGTTGG
Modification	mean fluorescence intensity [a.u.]
2'F-ANA at 1 3 4 5 6 10 11 12 13 15	48
2'F-ANA at 1 3 5 6 7 8 9 10 11 12 15	53.7
2'F-ANA at 1 4 6 7 10 11 14	44.8
2'F-ANA at 3 4 12 14 15	462
2'F-ANA at 2 3 4 5 7 8 9 11 12 13 15	99.2
2'F-ANA at 2 4 6 9 13 14	69.5
2'F-ANA at 1 2 4 5 6 9	56.4
2'F-ANA at 7 8 9 10 11 12 13 14 15	112
2'F-ANA at 2 3 6 8 10 11 12 13 14 15	216
2'F-ANA at 2 5 6 8 9 10 11 13	53.1
2'F-ANA at 2 7 8 10 14	89
2'F-ANA at 1 4 5 9 10 11 13	53.1
2'F-ANA at 2 3 9 10 15	383
2'F-ANA at 1 3 4 5 6 9 11 12 13 14	49.4
2'F-ANA at 1 3 4 5 7 8 9 11 14	56.6
2'F-ANA at 2 5 6 7 9 11 12 13 14 15	102
2'F-ANA at 2 3 6 7 8 9 10 11 12 13 15	297

Block 3
Target: Homeobox protein Hox-B13, full length (HOXB13, Homo sapiens, UniProt Q92826, residues 1-284)
Chain of UniProt Q92826 (whole entry, looked up): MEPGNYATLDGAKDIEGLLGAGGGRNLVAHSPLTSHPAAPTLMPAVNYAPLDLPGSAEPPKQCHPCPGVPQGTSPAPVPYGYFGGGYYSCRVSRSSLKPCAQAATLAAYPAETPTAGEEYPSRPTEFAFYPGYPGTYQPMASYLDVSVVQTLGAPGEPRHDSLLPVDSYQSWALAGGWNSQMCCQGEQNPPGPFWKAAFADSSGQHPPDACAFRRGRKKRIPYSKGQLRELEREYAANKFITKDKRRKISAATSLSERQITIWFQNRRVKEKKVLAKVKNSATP
Technique: protein-binding microarray
Molecule type: hairpin DNA
Matrix: in vitro
Concentration: not given
Notes: whole hairpin DNA, median over replicate spots
Relative to: not given
Direction: higher = stronger binding
Shared flanks, not repeated: GAGGCCG … CGGCCTCACACTC
Sequence	median fluorescence [a.u.]
TCTTACGAGGGCCTCCTGGCCCTCGTAAGA (5mC at 9)	4170
TTTTATCGGGGCCTCCTGGCCCCGATAAAA (5mC at 30)	4410
TTTTACGACGGCCTCCTGGCCGTCGTAAAA (5mC at 16 28)	4430
TTTTCGTGGGGCCTCCTGGCCCCACGAAAA	3970
TTTTATTGGGGCCTCCTGGCCCCAATAAAA (5mC at 30)	5420
TTTTACTGGGGCCTCCTGGCCCCAGTAAAA	4500
TTTTACGCGGGCCTCCTGGCCCGCGTAAAA	4310
TTTTATTGCGGCCTCCTGGCCGCAATAAAA (5mC at 16)	4720
TTCGATTGGGGCCTCCTGGCCCCAATCGAA (5mC at 10)	4060
TTTTCTTGGGGCCTCCTGGCCCCAAGAAAA (5mC at 12)	3760
TTTTCGGAGGGCCTCCTGGCCCTCCGAAAA	3790
TTTTACGTGGGCCTCCTGGCCCACGTAAAA	4350
TTTTATGGGGGCCTCCTGGCCCCCATAAAA (5mC at 31)	6280
TTTTATTGGTGCCTCCTGGCACCAATAAAA	5270
TTTTATCGGGGCCTCCTGGCCCCGATAAAA (5mC at 14)	4140
TTCTATTGGGGCCTCCTGGCCCCAATAGAA	4140
TTTGATTGGGGCCTCCTGGCCCCAATCAAA	4210
TTTCGCGAGGGCCTCCTGGCCCTCGCGAAA (5mC at 11 33)	4080
TTTTTCGAGGGCCTCCTGGCCCTCGAAAAA	3730
TTTTCGTGGGGCCTCCTGGCCCCACGAAAA (5mC at 12)	4130
CTTTACGAGGGCCTCCTGGCCCTCGTAAAG (5mC at 8)	4950
TTATACGAGGGCCTCCTGGCCCTCGTATAA	4360

Block 4
Target: CCNB3, cyclin fold, Cln2 fusion (human)
Technique: yeast growth competition, sequencing
Matrix: yeast
Notes: weak parent motif
Relative to: not given
Direction: higher = stronger binding
Starting sequence: E2F1 docking peptide (human); PPVKRRLDLETDH; partner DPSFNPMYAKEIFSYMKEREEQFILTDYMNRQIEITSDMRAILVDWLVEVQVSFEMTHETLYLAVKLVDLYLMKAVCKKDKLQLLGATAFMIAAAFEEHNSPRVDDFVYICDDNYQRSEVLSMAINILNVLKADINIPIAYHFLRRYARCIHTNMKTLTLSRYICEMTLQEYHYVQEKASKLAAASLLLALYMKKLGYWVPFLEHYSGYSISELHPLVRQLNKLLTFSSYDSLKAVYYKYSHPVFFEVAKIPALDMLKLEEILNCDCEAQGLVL
Change	normalised enrichment score
APVKRRLDLETDH [P1A]	0.693
CPVKRRLDLETDH [P1C]	0.325
PPVKTRLDLETDH [R5T]	-0.141
PEVKRRLDLETDH [P2E]	0.509
PPVKRCLDLETDH [R6C]	0.233
GPVKRRLDLETDH [P1G]	0.448
PPVKRRLELETDH [D8E]	-0.042
PPVKRRLDLETDV [H13V]	0.637
PPVKRWLDLETDH [R6W]	0.287
PPFKRRLDLETDH [V3F]	0.298
PPCKRRLDLETDH [V3C]	0.464
PPVKRRLDLWTDH [E10W]	0.256
PPVKRRLDLEMDH [T11M]	-0.0384
PPVIRRLDLETDH [K4I]	0.476
PPVKARLDLETDH [R5A]	0.271

For quick reference, copied from above (block 3):
Sequence	median fluorescence [a.u.]
TTCTATTGGGGCCTCCTGGCCCCAATAGAA	4140
TTTGATTGGGGCCTCCTGGCCCCAATCAAA	4210
TTTCGCGAGGGCCTCCTGGCCCTCGCGAAA (5mC at 11 33)	4080
TTTTTCGAGGGCCTCCTGGCCCTCGAAAAA	3730
